Results pooled from the literature.
A part holds a random share of what one study measured. Changes are numbered by the printed parent chain.

Study 1 — technique: RNA Bind-n-Seq; molecule type: RNA; medium: in vitro; concentration: 365 nM; baseline: no-protein control; direction: higher = stronger binding; quantity: RBNS enrichment (R)
Target: RNA binding protein fox-1 homolog 2, RRM domain, GST-SBP tag (RBFOX2, Homo sapiens, UniProt O43251-10, residues 100-194)
Notes: natural RNA segment, single round, ends assumed
Residues (chain): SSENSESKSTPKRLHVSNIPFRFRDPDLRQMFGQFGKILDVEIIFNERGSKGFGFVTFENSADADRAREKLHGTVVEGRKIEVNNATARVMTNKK
Sequence = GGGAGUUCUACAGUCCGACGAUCAUCAGGUCAGAUAUCUGAUGAAAAAUACGAACUAAUGUUAAGAGCAAGUAGUUUCAACAUACUCCAGGAACUGAGAAACAAAACAAAGCAAUUGUGGGUUUUGAGCUCCAUGGAAUUCUCGGGUGCCAA; result = 0.369
Sequence = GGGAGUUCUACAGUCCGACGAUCUUUAGGAAUAUGUUCAAUGCAAAGUAAAAAAAUAUGAAUUGUCCCCAAUCCCGGUCAUGCUUUUGCCACUUUGGCUUCUCCUGUGACCCCACCUUGACGGUGGGGCGUAGUGGAAUUCUCGGGUGCCAA; result = 0.896
Sequence = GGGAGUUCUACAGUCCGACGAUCGCUCCUGCAACAGUGCGGUCCCUGCCCGGAGAACUCAGGAGGCCUGCAGAAGAGAACUGAUUGGUGGUCGAAGCACCAUCUUCACAGAUGUUCAGGGGCAGUGGGGGGCUUGGAAUUCUCGGGUGCCAA; result = 1.25
Sequence = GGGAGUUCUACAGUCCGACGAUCCACUACAUCUCAAGUGUUACAGACUCCCCUCCCGCUCUUUCUUGGGGAAGAGGGGGUGGGUAAGCGCCCUCCUUCCUGUUUUUAUCUAAUAAAAUGCUAACCUGCCCAGGUGGAAUUCUCGGGUGCCAA; result = 0.521
Sequence = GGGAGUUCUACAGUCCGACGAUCGCCCAGCCCCGCCCCAGCCCCUGCUCAGGUCUGAGUAUGGCUGGGAGUCGGGGGCCACAGGCCUCUAGCUGUGCUGCUCAAGAGACUGGAUCAGGGUAGCUACAAGUGGCUGGAAUUCUCGGGUGCCAA; result = 0.298
Sequence = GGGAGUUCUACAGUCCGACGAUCGACCUUGCUGCCACAACCUGUGGGGUCUGAUGUGUCCCUUGAUGGGUGCUGCCCUCAGGGACUGCACCCUGACAAGUGUUAAGGCAACAUUCCUUUCUUGUGCCCUGGGCUGGAAUUCUCGGGUGCCAA; result = 0.174
Sequence = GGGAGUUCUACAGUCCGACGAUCGGGUGGGAUGUGCGUUCUCCGCUCGUGGUGAUGUCAGGAGCUCCUCGGAGGGAACAGAGCGGCUGUGUAUGCAGCCUGCAGGUUUCCAUACACUGAAGCUUUUACCUCAAUGGAAUUCUCGGGUGCCAA; result = 0.404
Sequence = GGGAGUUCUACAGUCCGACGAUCCAGCUGAAGCAAGAGGCUGAUUGACUGGCUGCUCACUCAGGCAGGUGGCCUGCCCUGGCAUCCUGUAGAUUCUGAGCAGGUUGAGAUGUGGAUAUCUCCAUGGGAAGCUUUGGAAUUCUCGGGUGCCAA; result = 0.445
Sequence = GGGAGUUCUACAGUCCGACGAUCCGCUCACUGUCCUGCCUGCUGUCCUCUACAGCUCCCUAUCCUUCCAUGUCUUUGGCCAUGUAGAUUAAGUGUAGGCGUCCGGUUCAUUCUUACCUGUGUUAGGCCAUGUUUGGAAUUCUCGGGUGCCAA; result = 0.641
Sequence = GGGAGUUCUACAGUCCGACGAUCCCUCAAAACAGAGAGAUGCUCUCUAGUGUUUAGAAAAGUAUGGUAGAACAAGUUGCUUAUAAUUGAGAGUGAGAGCAUGCCUUAAAUGUCAUGAUGGUAUGUGAAUAUGUUGGAAUUCUCGGGUGCCAA; result = 1.7
Sequence = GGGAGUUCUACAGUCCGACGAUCUUACAUAGCACAUCAUUCCUCCUAUAGGGAUGAACUUUUUUUCCGACACAAAAAGUAGCCACUGCGGUUAAAGCUUUGCUUAUUGUAACAGGCUUUUAUUUCCAGGUAACUGGAAUUCUCGGGUGCCAA; result = 0.633
Sequence = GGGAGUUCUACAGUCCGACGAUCAUAUCAGACUCCACAUAUGGCCUUAUUAAUUGCUGUAGGAAGCAUCUUGGGACUGGAAGAUAUGAUUCCCUUUCCAAUCAUCCCUUCUCUCUCCUGUCUAUACAUACACAUGGAAUUCUCGGGUGCCAA; result = 0.607

Study 2 — target: CCNB2, cyclin fold, Cln2 fusion (human); technique: yeast growth competition, sequencing; medium: yeast; notes: weak parent motif; baseline: not given; direction: higher = stronger binding; quantity: normalised enrichment score
Parent: MASTL docking peptide (human); PMIAKNLMCELDE
Change = D12Y; result = -0.205
Change = L7C; result = -0.426
Change = N6G; result = -0.0415
Change = K5D; result = -0.247
Change = D12T; result = 1.1
Change = C9Y; result = 0.867
Change = M2C; result = 0.835
Change = C9V; result = 0.718
Change = D12W; result = -0.11
Change = L7N; result = -0.128
Change = L11F; result = 2.87
Change = I3M; result = -0.325
Change = L11A; result = -0.188
Change = M8I; result = 0.729
Change = M2W; result = 0.433
Change = I3C; result = 0.589
Change = M8W; result = 0.491
Change = M2A; result = 0.605
Change = L7A; result = -0.202
Change = I3N; result = -0.0621
Change = A4N; result = 0.353
Change = A4L; result = -0.422
Change = E10P; result = 0.0932
Change = D12I; result = 0.265
Change = L7Q; result = 0.109

Study 3 — technique: protein binding microarray; molecule type: double-stranded DNA, one strand shown; medium: in vitro; concentration: not given; baseline: not given; direction: higher = stronger binding; quantity: E-score
Target: Histone acetyltransferase KAT6A, winged helix 1, GST fusion (KAT6A, Homo sapiens, UniProt Q92794, residues 1-85)
Notes: 8-mer, flanks averaged, mean of 2 arrays, mostly near background
Construct (chain): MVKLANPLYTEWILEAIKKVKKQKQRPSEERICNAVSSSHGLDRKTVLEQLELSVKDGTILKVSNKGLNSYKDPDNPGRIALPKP
Sequence = TCTTTTCA; result = -0.0441
Sequence = ACCCTAAA; result = -0.129
Sequence = GCAGTAGA; result = -0.0867
Sequence = CCTCAAAC; result = -0.0913
Sequence = GAAGTCGA; result = -0.23
Sequence = GCAAATCC; result = -0.0185
Sequence = CCCGAAAC; result = -0.0201
Sequence = GCAACCGC; result = 0.204
Sequence = AGGTGTCA; result = -0.168
Sequence = AGACAGTC; result = 0.0345
Sequence = AACCAATT; result = -0.167
Sequence = CCGCAGGA; result = 0.033
Sequence = AACGCGGG; result = 0.372
Sequence = CTACTAGC; result = 0.0264
Sequence = TGGTGTAA; result = -0.155
Sequence = CGAGGACC; result = 0.0971
Sequence = TGTCAACA; result = -0.235
Sequence = CCTATGAG; result = -0.239

Study 4 — technique: RNA Bind-n-Seq; molecule type: RNA; medium: in vitro; concentration: not given; baseline: input RNA pool; direction: higher = stronger binding; quantity: bound/input enrichment
Target: RING finger protein unkempt homolog, zinc fingers 1-6, GST-SBP tag (UNK, Homo sapiens, UniProt Q9C0B0, residues 30-357)
Notes: RNA with constant flanks, human and mouse sites, ends assumed
Construct (chain): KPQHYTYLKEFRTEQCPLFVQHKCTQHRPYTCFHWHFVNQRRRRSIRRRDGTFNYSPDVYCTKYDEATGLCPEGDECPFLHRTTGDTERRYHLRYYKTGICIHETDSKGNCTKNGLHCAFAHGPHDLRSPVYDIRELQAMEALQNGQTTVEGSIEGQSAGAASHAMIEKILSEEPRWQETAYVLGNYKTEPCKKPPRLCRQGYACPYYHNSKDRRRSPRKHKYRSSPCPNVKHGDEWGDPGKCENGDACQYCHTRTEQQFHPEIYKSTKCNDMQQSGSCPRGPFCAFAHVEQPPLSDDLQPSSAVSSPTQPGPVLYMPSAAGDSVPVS
Sequence = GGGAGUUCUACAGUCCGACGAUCGAGACCCUGGGAGCCUUCCAGCCGUCAGGCUGCACGCACGUACCUGCUCUAGCUUGCUGGGUUUGUUGUUUGUUUCUUUAUGUAGACUUUGUCCUUGGCGUAAUUUCCCACUCUAGUAAACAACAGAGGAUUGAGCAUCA; result = 0.823 ratio
Sequence = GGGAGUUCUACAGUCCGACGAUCGAUGAAUUGAUGACCCUGGCUCAUAAGCACAUUGUCAAGACUGUGGAUUUCACACAGGAUAGCAAUUACCUGCUAACUGGGGGACAGGAUAAACUGCUGCGCAUAUAUGACUUGAACAAACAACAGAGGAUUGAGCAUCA; result = 0.35 ratio
Sequence = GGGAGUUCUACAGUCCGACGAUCUCCGGAGUCUUCAAUGUAUCAGAGCUUGUGAGAGUAUCCAGAACACCCAUAACCCAGGGAACUGGAGUCAACUUCCCAAUCGGAGAAAUUCCCAGCCAACCAUACUAUCAUGACAUGAACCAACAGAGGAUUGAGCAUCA; result = 0.304 ratio
Sequence = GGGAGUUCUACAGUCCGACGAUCAUCCAGGCCCUCCGCUGGGUGAGCGAGAAUAUUGCCUUCUUCGGGGGAGACCCCCGCCGGAUCACUGUCUUUGGCUCGGGCAUUGGUGCAUCCUGCGUCAGCCUCCUCACGUUGUCACAUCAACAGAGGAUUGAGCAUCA; result = 0.186 ratio
Sequence = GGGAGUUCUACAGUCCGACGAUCACCUCCAGAAAGAAGAAUAUUGGCCCCUUGAAUUCUGGAAGUUCAUUGAAGAGUCUGAAAUUAGGGACUUAUUUCAAAUUUGGACAUGGCUAGUCGAGGCGCAACAAGACCCAACGGGCCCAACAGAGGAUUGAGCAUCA; result = 0.306 ratio
Sequence = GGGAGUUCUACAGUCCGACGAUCAGUCUGUCUGGAUGUUACCAGAUCACAGACCAUGGUCUCAGGGCUCUGACUCUGGGAGGAGGGCUGCCUUACCUGGAGCACCUGAAUCUCUCUGGCUGUCUGACUGUAACUGGUGCAGGGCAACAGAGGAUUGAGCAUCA; result = 0.23 ratio
Sequence = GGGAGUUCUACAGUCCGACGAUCUCUCUUUUGGCUGUCCUGGGAGCCCCAGUCCCAUCCGACCUACAGGCCCAAAGACACCCAACCACAGGCCAGAUACUGGGUUACAAAGAGGUCUUGCUGGAGAACACAAAUCUCUCGGCUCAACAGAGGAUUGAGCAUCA; result = 0.0514 ratio
Sequence = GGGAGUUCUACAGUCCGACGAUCCAUUGUGGAAUUCCCUAGCAAUUUAUUUAGACUUAAUUUUUUAAAUUCAAGCUUACUGUAUUAGUCAUUUUUAGCCCAUAAUUAAAACAUGAUCACUUUUACACAGGUGUAGUAUGGUGCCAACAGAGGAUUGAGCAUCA; result = 818 ratio
Sequence = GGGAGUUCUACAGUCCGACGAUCAAACUAAUACUUAUCUUUAAAAUAGUAAAUAGGAUUUUAAACAGAGAAUUUUAUCAGUAAUAGGUGUCAGUUUUUAAAAAAUUGCUUGUAGGCUGAGCGCGGUGGCUCACGCCUGUAAUCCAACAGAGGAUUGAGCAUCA; result = 3.23 ratio
Sequence = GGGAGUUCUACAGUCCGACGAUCGAACCGAAAGGCCAAAUCCCCUCCUCCCUUCUCCUGCUUCUGCCAACCGGAAGCACAGAAAACUAGAACUUCAUUGAUUUUGUUUUUUAAAAGAUACACUGAUUUAACAUCUGAUAGGAACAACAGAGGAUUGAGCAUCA; result = 1.04 ratio
Sequence = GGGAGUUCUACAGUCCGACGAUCUCUGUUCUUUUGGAUGAGAUAUUAAAGGAUCCAGAACAUCCAAACAAGGAUUACCUAAUUAACUUUGAGAUUCGGUCUCUGCGAGAUAGCCGAGCACUGAUUGAGAAGGUUGGAAUUAAACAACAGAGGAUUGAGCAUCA; result = 0.13 ratio

Further values, each from its own experiment
Molecule = PhoQ, residues 284 288 289 292 302 303 WSHMKI; target = PhoP, residues 12 14 15 18 19 SYFRT (Escherichia coli, UniProt P23836); test = Sort-seq, measured: YFP reporter; system = E. coli; conditions = PhoQ-PhoP variant library, added: 10 µM Mg2+; scale = baseline: high Mg2+ state, higher = stronger signaling; quantity = fold induction; result = 0.764

Repeated from above (study 3):
Sequence = CCTATGAG; result = -0.239
Sequence = GCAACCGC; result = 0.204
Sequence = TCTTTTCA; result = -0.0441
Sequence = AGACAGTC; result = 0.0345
Sequence = CGAGGACC; result = 0.0971
Sequence = ACCCTAAA; result = -0.129
Sequence = CCCGAAAC; result = -0.0201
Sequence = CCGCAGGA; result = 0.033
